Assay results of several laboratories.
Every numbered part comes from another study and shows a few of its results, in no order.

Study 1
Target: RNA binding protein fox-1 homolog 2, RRM domain, GST-SBP tag (RBFOX2, Homo sapiens, UniProt O43251-10, residues 100-194)
Technique: RNA Bind-n-Seq
Molecule type: RNA
Medium: in vitro
Concentration: 365 nM
Setting: natural RNA segment, single round, ends assumed
Relative to: no-protein control
Reading: higher = stronger binding
All sequences stand within: GGGAGUUCUACAGUCCGACGAUC … UGGAAUUCUCGGGUGCCAA
Construct (chain): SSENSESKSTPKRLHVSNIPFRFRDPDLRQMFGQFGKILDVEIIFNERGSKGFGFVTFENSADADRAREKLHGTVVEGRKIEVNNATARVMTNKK
| Strand | RBNS enrichment (R) |
| --- | --- |
| ACUUUAACAGCUGUUCCCGAAAGGGUUAGGACCAACUGCAAGUUAAUGUGGGUUGUAAAUGUUCCCCUAACUUCUGUUUCUUCUGAAGAGAAAAUAAACCUUUUUCCCCC | 0.51 |
| UCUACUUUCAAAAAUGAAACAAAAAGGAAAAAUGGCAAAGUACUGUUUUAGCUGUGCAUGUCAUAUCCACAAAGACUUUUAGCAGGUGAACUGUUCCAAGACUGACACAA | 0.263 |
| ACGGCAGCCCCAUCCUUCCCGCAGCACCAGCCUGAGCCACAGUGGGGCCCAUGGCCCCAGCUGGCUGGGUCGCCCCUCCUCGGGCGCCUGCGCUCCUCUGCAGCCUGAGC | 0.294 |
| UUUAAUUCAUGUUUGAGUCUCUUAACUGAUGGAUGCCCACUUGCCUUAAAGCAGCAUACUUAUUUUUUGUUUAUUUAUUGUGAGCUUUUUACUUUAUUAAGAUUUUACAG | 0.824 |
| UCUUGACCCUACACUGAAGGCUGAAGGCAGAAGCCACAAGAGGCCUUGAGUGCCACCCCCAGGGAAGAACAUAAAGGGUUGCACAAUGCCACCCAUCCACUCCUUGCCAA | 0.236 |
| ACUGUGUCAAAAGCUGUGAGCAGCAAAAUAUAAUCCAUAUGACCUUUUCUCUUGCACUUCACUUGUAUGUUUUACUGUGGUGGAAAAAAUACUUCAACUGAUUAUCACAC | 0.589 |
| GUAACAUCUUACAUUCUGUUUUCUUCCAGUCUUUGCAGUAUUCACUAGAGGUUCCCUUUGCAUGUUGCACUCUGUUCUCAUUUGGAGAUUGAACUCUGAAUUAACACAGU | 7.58 |
| ACCCCCGAACCCUCUGAUGCUCCCGGAGACUCCUCCGACUCCACACCUCUCGCGGCAGCUGUCAUUUCCAUGUGCACUGGGACGGGAAGUCAAACGAGGAAUUUAAAAAA | 0.267 |

Study 2
Target: Histone acetyltransferase KAT6A, winged helix 1, GST fusion (KAT6A, Homo sapiens, UniProt Q92794, residues 1-85)
Technique: protein binding microarray
Molecule type: double-stranded DNA, one strand shown
Medium: in vitro
Concentration: not given
Setting: 8-mer, flanks averaged, mean of 2 arrays, mostly near background
Relative to: not given
Reading: higher = stronger binding
Construct (chain): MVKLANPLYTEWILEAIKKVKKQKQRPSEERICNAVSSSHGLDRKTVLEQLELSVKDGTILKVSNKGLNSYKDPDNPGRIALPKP
| Strand | E-score |
| --- | --- |
| ACTTCGAT | -0.0222 |
| CCGGCCCG | 0.399 |
| TGTGTCAA | -0.214 |
| AGTTTCGA | -0.128 |
| AGTTAACT | 0.205 |
| CGCTCATC | 0.157 |
| GAGGTATC | 0.0507 |
| CACTAGAG | -0.0236 |
| ACCGGGCA | 0.273 |
| TCCGACAA | 0.0834 |
| ACACCTGT | -0.071 |
| TAAATGCA | -0.134 |
| AGTGTTTC | -0.00339 |
| CGGTCAGC | 0.26 |
| AAGCCCTG | -0.121 |
| AAGCCAAC | -0.033 |
| CAACGAAA | -0.137 |
| GAAGCACA | -0.262 |
| TACGGCGA | 0.416 |
| ATCACGGG | 0.186 |
| AGGGGGGA | -0.263 |
| ACTTTTGA | -0.0131 |
| GGTTACGA | 0.193 |

Study 3
Target: Sal-like protein 4, full length isoform A (SALL4, Homo sapiens, UniProt Q9UJQ4, residues 1-1053)
Sequence of UniProt Q9UJQ4 (whole entry, looked up): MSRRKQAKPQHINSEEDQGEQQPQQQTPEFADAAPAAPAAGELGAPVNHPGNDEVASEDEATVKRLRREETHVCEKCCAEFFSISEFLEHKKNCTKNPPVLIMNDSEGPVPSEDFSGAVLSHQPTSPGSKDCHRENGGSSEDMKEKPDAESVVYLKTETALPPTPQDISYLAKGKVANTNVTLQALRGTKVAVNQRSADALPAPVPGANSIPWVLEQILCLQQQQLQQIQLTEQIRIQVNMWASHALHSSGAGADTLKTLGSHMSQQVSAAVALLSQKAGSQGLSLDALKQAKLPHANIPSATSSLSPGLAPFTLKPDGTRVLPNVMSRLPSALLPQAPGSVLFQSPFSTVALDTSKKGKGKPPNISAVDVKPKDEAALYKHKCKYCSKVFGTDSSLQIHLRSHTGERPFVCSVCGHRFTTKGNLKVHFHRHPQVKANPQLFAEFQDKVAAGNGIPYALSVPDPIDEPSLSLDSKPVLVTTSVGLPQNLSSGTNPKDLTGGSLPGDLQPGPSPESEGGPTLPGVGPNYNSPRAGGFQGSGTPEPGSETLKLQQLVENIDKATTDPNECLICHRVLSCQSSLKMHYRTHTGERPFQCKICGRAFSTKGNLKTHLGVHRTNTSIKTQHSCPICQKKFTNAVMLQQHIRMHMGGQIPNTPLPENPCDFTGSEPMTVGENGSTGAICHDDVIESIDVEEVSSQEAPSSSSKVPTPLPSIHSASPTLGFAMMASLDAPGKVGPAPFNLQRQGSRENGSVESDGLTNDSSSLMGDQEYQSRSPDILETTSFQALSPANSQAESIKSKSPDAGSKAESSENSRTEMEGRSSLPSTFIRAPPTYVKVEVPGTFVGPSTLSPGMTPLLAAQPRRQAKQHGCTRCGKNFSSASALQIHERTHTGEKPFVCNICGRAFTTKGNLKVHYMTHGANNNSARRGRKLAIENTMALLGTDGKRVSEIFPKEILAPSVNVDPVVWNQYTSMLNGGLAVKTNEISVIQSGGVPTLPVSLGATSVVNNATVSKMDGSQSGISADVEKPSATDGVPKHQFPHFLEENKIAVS
Technique: universal PBM
Molecule type: double-stranded DNA, one strand shown
Medium: in vitro
Concentration: 600 nM
Setting: 8-mer, flanks averaged, mean of replicates
Reading: higher = stronger binding
| Strand | E-score |
| --- | --- |
| CTTGAGCA | -0.0471 |
| ATTTACGC | 0.155 |
| GCACGGAC | -0.273 |
| CGTACTAA | 0.229 |
| AAACCCTC | -0.0356 |
| TCCTGCAA | 0.0413 |
| GGTCATGA | 0.0539 |
| TCATTGGA | 0.0667 |
| AATGATAA | 0.37 |
| CGACGTAC | -0.0985 |
| CCAAGCAA | -0.115 |
| GACTACTC | -0.139 |
| GTCCTTCA | 0.0332 |
| TCCGCGCA | -0.2 |
| ACCGTCAA | 0.0285 |
| ACTCTAGG | -0.188 |
| ATAGCGGA | 0.0869 |
| GAGCCCAA | -0.197 |
| CCCCCCTC | -0.33 |
| CTTCTGCA | 0.0485 |
| ACGAGTCG | -0.221 |
| GCTTGAAC | 0.116 |
| CTCCACCA | -0.21 |
| CCAGCCGC | -0.301 |

Study 4
Target: Ras GTPase-activating protein-binding protein 1, RRM domain (G3BP1, Homo sapiens, UniProt Q13283)
Sequence of UniProt Q13283 (whole entry, looked up): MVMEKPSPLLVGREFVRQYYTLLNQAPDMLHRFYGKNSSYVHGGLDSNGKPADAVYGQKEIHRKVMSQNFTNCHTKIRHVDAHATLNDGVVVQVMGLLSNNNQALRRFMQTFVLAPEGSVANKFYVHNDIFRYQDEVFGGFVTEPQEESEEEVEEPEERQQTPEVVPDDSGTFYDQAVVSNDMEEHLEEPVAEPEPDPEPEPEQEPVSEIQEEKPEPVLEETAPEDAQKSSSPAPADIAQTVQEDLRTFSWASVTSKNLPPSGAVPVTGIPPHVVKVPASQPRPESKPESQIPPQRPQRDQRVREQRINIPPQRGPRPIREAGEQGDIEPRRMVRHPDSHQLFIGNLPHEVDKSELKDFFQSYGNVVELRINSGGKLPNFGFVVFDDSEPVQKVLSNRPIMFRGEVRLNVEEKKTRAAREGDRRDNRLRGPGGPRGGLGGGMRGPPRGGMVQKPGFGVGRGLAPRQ
Technique: RNA Bind-n-Seq
Molecule type: RNA
Medium: in vitro
Concentration: 1 µM
Setting: whole 134-nt RNA, ends assumed
With: 150 mM KCl
Relative to: input library
Reading: higher = stronger binding
All sequences stand within: GGGAGUUCUACAGUCCGACGAUC … UGGAAUUCUCGGGUGUCAAGG
| Strand | log2 enrichment |
| --- | --- |
| CAAGUCCUGUGCUACACAUCGUAUGUACCGAAUCGGGAAAGGGAAAGGGGAAAGGGAAAGUAUUAUGUUACGCCGUUCGGAUCUGCACUU | 0.623 |
| AGUCCUGUGCUACACAUCGUAUGUACCGAAUCGGUUUUUGGUUUUUGGGUUUUUGGGAAAGUAUUAUGUUACGCCGUUCGGAUCUGCACU | -0.0705 |
| CACAGACAACACGCACCCACACAGACACAGAGGGAAGGGGUUGGCAUGGGGACAGGGUGCACAGCAGGGCGGGGUAGGACCCCAGCCCCU | -0.13 |
| CCUGUGCUACACAUCGUAUGUACCGAAUCAAAGUGUGUGUGUGUAAAGUGUGUGUGUAAAAAAGUAUUAUGUUACGCCGUUCGGAUCUGC | -0.156 |
| UUUUGCAUUUAGGGUUUUAACCAAGAAGAUCUGGAAGAAGAAAAAGGUGAAACACAGGUAAAAGAAGCAGAAGAUUCAGAUUCUGAUGAU | -0.244 |
| CAAGUCCUGUGCUACACAUCGUAUGUACCGAAUCGGGUGGGUGGGUUUUUUUGGGAAAGUAUUAUGUUACGCCGUUCGGAUCUGCACUUC | 0.71 |
| CCUGUGCUACACAUCGUAUGUACCGAAUCGGGGUUUUUGGGGUUUUUUUGGGGAAAGGGGAAAGUAUUAUGUUACGCCGUUCGGAUCUGC | 0.691 |
| UGCUGUGUCACCGGGAACGCAAAGGCUGGGAAGAAGGCCCUUCUCAAAAUGGACUGGUGUUGCAGGGUGAGAAGCUGCCCCCUGACUUCA | -0.158 |
| UCCUGUGCUACACAUCGUAUGUACCGAAUCGGGGAGGGGUUUUUUUGGGGAAAAAGGGGAAAGUAUUAUGUUACGCCGUUCGGAUCUGCA | 0.654 |

Excerpt of the above (study 3):
| Strand | E-score |
| --- | --- |
| ACTCTAGG | -0.188 |
| ATAGCGGA | 0.0869 |
| GAGCCCAA | -0.197 |
| CCCCCCTC | -0.33 |
| CTTCTGCA | 0.0485 |
| ACGAGTCG | -0.221 |
| GCTTGAAC | 0.116 |
